Published values from different studies.
Protocols differ between the studies behind these lines. “And” joins repeats or separate records; there may be more than shown. ± marks the error that the study gave.

C=CC(=O)Nc1cc(Nc2nccc(Nc3cc(Cl)c(F)cc3C(C)(C)O)n2)c(OC)cc1N1CC[C@@H](N(C)C)C1  patients with anaemia (human patients; oral, 100 mg, treatment-emergent adverse events): 33.3%
COc1cc2c(Oc3ccc4[nH]c(C)cc4c3F)ccnc2cc1OCC1(N)CC1  grade 3 ALP elevation (paediatric recurrent refractory sarcoma; 8 mg): 0%
COc1ccc([C@@H]2CC(=O)c3c(O)cc(O)cc3O2)cc1O  amount excreted in urine (Sprague-Dawley rat, male, obese, urine; oral, 100 mg/kg of neohesperidin, 48 h, after β-glucuronidase/sulfatase, total): 142 ± 69.9 ng
O=c1ccc2cc3ccoc3cc2o1  accuracy (rat plasma; 1000 ng/mL, 2 weeks, -70 °C, post-preparative stability): 89.5%
CN(C)C(=O)c1cc2cnc(Nc3ccc(N4CCNCC4)cn3)nc2n1C1CCCC1  serious adverse event incidence (refers to: respiratory failure; HR+/HER2− advanced breast cancer patients; oral, dose not given, not drug-related): 0.3%
CC(C)C[C@H](NC(=O)[C@H](CCCCN)NC(=O)OCC1c2ccccc2-c2ccccc21)C(=O)N[C@H](C(=O)N[C@@H](Cc1ccccc1)C(=O)N[C@@H](Cc1ccccc1)C(=O)N[C@@H](CCCCN)C(=O)NCC(=O)N[C@@H](Cc1ccccc1)C(=O)N[C@@H](C)C(=O)N[C@@H](Cc1c[nH]c2ccccc12)C(=O)N[C@@H](CC(N)=O)C(=O)N[C@H](C(=O)N[C@H]1CSSC[C@@H](C(=O)N[C@@H](Cc2c[nH]cn2)C(=O)N[C@@H](CCCNC(=N)N)C(=O)N[C@@H](CCCNC(=N)N)C(=O)N[C@@H](C)C(=O)N[C@@H](CC(N)=O)C(N)=O)NC(=O)[C@H](C(C)C)NC(=O)[C@H](CCCNC(=N)N)NC(=O)[C@H](C(C)C)NC(=O)CNC(=O)[C@H](CC(N)=O)NC(=O)[C@H](CCCNC(=N)N)NC(=O)[C@H](Cc2ccc(O)cc2)NC(=O)[C@H](C(C)C)NC1=O)C(C)C)C(C)C  remaining peptide (HPLC; mouse liver homogenate; 2560 µM, 4.00 h, 50 mg/mL tissue): 50.1% and 47.7% and 43.4%
CCCCCOc1ccc(-c2ccc(-c3ccc(C(=O)N[C@H]4C[C@@H](O)[C@@H](OCC[N+](C)(C)C)NC(=O)[C@@H]5[C@@H](O)[C@@H](C)CN5C(=O)[C@H]([C@@H](C)O)NC(=O)[C@H]([C@H](O)[C@@H](O)c5ccc(O)cc5)NC(=O)[C@@H]5C[C@@H](O)CN5C(=O)[C@H]([C@@H](C)O)NC4=O)cc3)cc2)cc1  Cmin (adult patients in ICU, plasma; intravenous, 400 mg loading dose, after first dose, arithmetic mean): 2190 ng/mL
[O-][S+]1CCc2nc(N3CCC(c4ncc(Cl)cn4)CC3)nc(NC3(CO)CCC3)c21 (stereo not drawn)  Flatulence adverse events (idiopathic pulmonary fibrosis patients; 18 mg twice daily): 30%
O=C(Nc1ccccc1)C1CCN(C(=O)Oc2cccnc2)CC1  change in internal perception score (psychotropic effects VAS; healthy women; 60 mg; reference: pre-dose baseline, direction not given): 0
N[C@@H]1c2ccccc2OC12CCN(c1cnc3c(N4CCCc5ncccc54)n[nH]c3n1)CC2  dose-limiting toxicity (advanced metastatic solid tumour patients; oral, 150 mg once daily, cycle 1, 21 days): 75%
CN1CC[C@@H](c2c(O)cc(O)c3c(=O)cc(-c4ccc(C(F)(F)F)cc4Cl)oc23)[C@@H]1CO  patients with adverse event (refers to: Anemia; relapsed or refractory haematological malignancies; oral, dose not given, all arms): 22.5%
O=c1c2cc(Cl)c(CO)cc2[nH]c(=S)n1Cc1cccnc1  volume of distribution at steady state (mouse, plasma; intravenous, dose not given): 0.54 L/kg
N#C[C@@]1(n2ccc(N)nc2=O)O[C@H](CO)[C@@H](O)[C@H]1O  concentration (CD-1 mouse, plasma; intravenous, dose not given, 7 h): 370 nM and 590 nM and 610 nM
C=C(CN(C(=O)c1c(C(F)F)nn(C)c1F)C1CC1)c1ccc(Cl)cc1Cl  mortality (static acute toxicity test; zebrafish (Brachydanio rerio); 0.694 mg a.i./L, 24 h): 0%
C[C@H]1COCCN1c1nc(NCc2cccnc2C(F)(F)F)c2cccnc2n1  Vss (BALB/c mice; intravenous, 5 mg/kg): 0.317 L/kg
CC(=O)c1ccccc1  logD (chromatographic) (pH 7.4): 3.18
COc1ncccc1-c1cnn2ccc(N3CCN(C(=O)OC(C)C)CC3)nc12  drug concentration (mouse, SNL model, brain; oral, 60 mg/kg, 30 min): 62000 nM
COS(C)(=O)=O  PCE to total erythrocytes ratio (male Hsd:ICR (CD-1) mouse, bone marrow; oral, 40 mg/kg/day, positive control): 0.508
CN(C(=O)n1cnc(-c2ccc[n+]([O-])c2)c1)C1CCCCC1  concentration (Wistar rat, cerebellum; oral, 10 mg/kg/day, 72 h, repeated 5 days): 14.8 ± 7.3 ng/g
CC[C@H](C)[C@H](NC(=O)[C@H](Cc1ccccc1)NC(=O)[C@H](CCC(=O)O)NC(=O)[C@H](CCCNC(=N)N)NC(=O)[C@H](C)NC(=O)[C@H](C)NC(=O)[C@H](CCC(N)=O)NC(=O)[C@H](CCC(=O)O)NC(=O)[C@H](CCC(=O)O)NC(=O)[C@H](CC(C)C)NC(=O)[C@H](Cc1ccc(O)cc1)NC(=O)[C@H](CO)NC(=O)[C@H](CO)NC(=O)[C@@H](NC(=O)[C@H](CC(=O)O)NC(=O)[C@H](CO)NC(=O)[C@@H](NC(=O)[C@H](Cc1ccccc1)NC(=O)[C@@H](NC(=O)CNC(=O)[C@H](CCC(=O)O)NC(=O)[C@H](C)NC(=O)CCc1cnc[nH]1)[C@@H](C)O)[C@@H](C)O)C(C)C)C(=O)N[C@@H](C)C(=O)N[C@@H](Cc1c[nH]c2ccccc12)C(=O)N[C@@H](CC(C)C)C(=O)N[C@H](C(=O)N[C@@H](CCCNC(=N)N)C(=O)NCC(=O)N[C@@H](CCCNC(=N)N)C(=O)N[C@@H](CCCCNC(=O)COCCOCCNC(=O)COCCOCCNC(=O)CC[C@H](NC(=O)CCCCCCCCCCCCCCCCC(=O)O)C(=O)O)C(=O)NCC(=O)NCC(=O)N[C@@H](CO)C(=O)N[C@@H](CCCCNC(=O)[C@H](CCCCNC(=O)[C@H](CCCCNc1c(NCCCCCN(O)C(=O)CCC(=O)NCCCCCN(O)C(=O)CCC(=O)NCCCCCN(O)C(C)=O)c(=O)c1=O)Nc1c(NCCCCCN(O)C(=O)CCC(=O)NCCCCCN(O)C(=O)CCC(=O)NCCCCCN(O)C(C)=O)c(=O)c1=O)NC(=O)[C@H](CCCCNc1c(NCCCCCN(O)C(=O)CCC(=O)NCCCCCN(O)C(=O)CCC(=O)NCCCCCN(O)C(C)=O)c(=O)c1=O)Nc1c(NCCCCCN(O)C(=O)CCC(=O)NCCCCCN(O)C(=O)CCC(=O)NCCCCCN(O)C(C)=O)c(=O)c1=O)C(=O)O)C(C)C [zirconium-89 labelled]  tissue uptake (ex vivo gamma counting; male Sprague-Dawley rats, pancreas; intravenous, 1 nmol, 24 h): 0.35 %ID/g
Cn1cncc1-c1c(F)cncc1NC(=O)c1c(N)nn2cc(F)cnc12  patients grade ≥3 Neutrophil count decrease (human patients; oral, 150 mg twice daily, 4 days on 3 days off): 25%
O=C(c1ccc(F)c(F)c1Nc1ccc(I)cc1F)N1CC(O)([C@@H]2CCCCN2)C1  fatal adverse events (human patients; oral, 1 mg/kg, age ≥18 years): 0%
CCc1ccc(CC/C=C/c2ccc3c(c2)C(=O)CC3)cc1  hematocrit (Sprague-Dawley rat, female, blood; oral, 30 mg/kg/day, 14 days): 44.8%
C[C@]1(CO)Cc2ncn(-c3ccc(C#N)c(Cl)c3)c2C(=O)O1  any TEAE (human; 10 mg, European food-effect part, fasted): 25%
[Cl][212Pb][Cl]  tissue uptake (refers to: 212Pb; athymic mouse, C4-2 prostate xenograft, prostate; intravenous, 2 h): 1.04 ± 0.36 %ID/g
CO[C@H]1C[C@@H]2CC[C@@H](C)[C@@](O)(O2)C(=O)C(=O)N2CCCC[C@H]2C(=O)O[C@H]([C@H](C)C[C@@H]2CC[C@@H](OC(=O)NCCOCCOCCOCCOCCOCCOCCOCCOCCC(=O)N3CCc4cc(Cn5nc(-c6ccc7oc(N)nc7c6)c6c(N)ncnc65)ccc4C3)[C@H](OC)C2)C[C@@H](O)[C@H](C)/C=C(\C)[C@@H](O)[C@@H](OC)C(=O)[C@H](C)C[C@H](C)/C=C/C=C/C=C/1C  incidence of Fatigue TEAE (patients with advanced solid tumours; intravenous, dose not given, any grade): 57.9%
COc1ccc(-c2c(-c3ccc(C#N)c(F)c3)nc(N3CCC(N)CC3)n(C)c2=O)cc1F  treatment-related adverse event incidence (refers to: Diarrhea; neuroendocrine neoplasm patients; oral, 60 mg, grade 3 to 4, dose expansion): 0%

Excerpt of the above:
C=CC(=O)Nc1cc(Nc2nccc(Nc3cc(Cl)c(F)cc3C(C)(C)O)n2)c(OC)cc1N1CC[C@@H](N(C)C)C1  patients with anaemia (human patients; oral, 100 mg, treatment-emergent adverse events): 33.3%
